Results collected from several papers.
A part holds a random share of what one study measured. Changes are numbered by the printed parent chain.

Study 1
Target: Ras GTPase-activating protein-binding protein 1, full length (G3BP1, Homo sapiens, UniProt Q13283)
Sequence of UniProt Q13283 (whole entry, looked up): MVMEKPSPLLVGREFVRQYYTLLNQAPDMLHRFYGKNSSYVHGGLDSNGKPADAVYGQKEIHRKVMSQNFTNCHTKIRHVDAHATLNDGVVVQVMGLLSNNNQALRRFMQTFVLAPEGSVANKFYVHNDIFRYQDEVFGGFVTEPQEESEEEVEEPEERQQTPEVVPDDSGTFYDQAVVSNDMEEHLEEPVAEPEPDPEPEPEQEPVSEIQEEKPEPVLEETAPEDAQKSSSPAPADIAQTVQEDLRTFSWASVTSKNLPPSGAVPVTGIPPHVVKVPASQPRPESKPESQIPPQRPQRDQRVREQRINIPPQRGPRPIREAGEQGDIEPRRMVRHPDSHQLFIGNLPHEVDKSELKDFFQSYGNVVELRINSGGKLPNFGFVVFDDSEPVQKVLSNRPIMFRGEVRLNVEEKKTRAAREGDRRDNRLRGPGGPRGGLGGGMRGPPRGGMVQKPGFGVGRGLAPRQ
Technique: RNA Bind-n-Seq
Molecule type: RNA
Matrix: in vitro
Concentration: 200 nM
Notes: whole 134-nt RNA, ends assumed
Added: 150 mM KCl
Relative to: input library
Reading: higher = stronger binding
Endpoint: log2 enrichment
Shared flanks, not repeated: GGGAGUUCUACAGUCCGACGAUC … UGGAAUUCUCGGGUGUCAAGG
CUCAAGUCCUGUGCUACACAUCGUAUGUACCGAAUCGGGGCGGGCGGGCGGGGAAAGUAUUAUGUUACGCCGUUCGGAUCUGCACUUCCA: 0.846
CACAGACAACACGCACCCACACAGACACAGAGGGAAGGGGUUGGGAUGGGGACACGGUGCACAGCAGGGCGGGGUAGGACCCCAGCCCCU: 1.8
CCUCAAGUCCUGUGCUACACAUCGUAUGUACCGAAUCGGUGGUUUUUGGUGGAAAGUAUUAUGUUACGCCGUUCGGAUCUGCACUUCCAG: -0.129
CACAGACAACACGCACAAACACAGACACAGAGGGAAGGGGUUGGGAUGGGGACAGGGUGCACAGCAGGGCGGGGUAGGACCCCAGCCCCU: 1.32
CAAGUCCUGUGCUACACAUCGUAUGUACCGAAUCGGUUUUUUUGGAAAAAGGUGGAAAGUAUUAUGUUACGCCGUUCGGAUCUGCACUUC: -0.863
CCUGUGCUACACAUCGUAUGUACCGAAUCGGGGUUUUUUUGGUUUUUUUGGUUUUUUUGGAAAGUAUUAUGUUACGCCGUUCGGAUCUGC: -0.761

Study 2
Target: CCNA1, cyclin fold, Cln2 fusion (human)
Technique: yeast growth competition, sequencing
Matrix: yeast
Notes: weak parent motif
Relative to: not given
Reading: higher = stronger binding
Endpoint: normalised enrichment score
Starting sequence: WEE1 docking peptide (human); HKTFRKLRLFDTP; partner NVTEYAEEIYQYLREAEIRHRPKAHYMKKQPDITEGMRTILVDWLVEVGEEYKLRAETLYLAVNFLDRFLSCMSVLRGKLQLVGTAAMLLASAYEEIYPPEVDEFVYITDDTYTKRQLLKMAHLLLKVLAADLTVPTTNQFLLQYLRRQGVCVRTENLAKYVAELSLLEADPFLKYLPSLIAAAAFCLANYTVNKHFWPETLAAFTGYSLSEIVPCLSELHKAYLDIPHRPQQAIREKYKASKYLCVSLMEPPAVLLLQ
HQTFRKLRLFDTP [K2Q]: 0.269
HKTYRKLRLFDTP [F4Y]: 0.411
HKTFQKLRLFDTP [R5Q]: 0.243
YKTFRKLRLFDTP [H1Y]: 0.00925
HKTFWKLRLFDTP [R5W]: 0.207
HKTDRKLRLFDTP [F4D]: 0.242
HKLFRKLRLFDTP [T3L]: 0.0802
HKTFRKVRLFDTP [L7V]: 0.177
HKTFRKLRLFYTP [D11Y]: -0.236

Study 3
Target: ABI1, truncated, D143A, DHFR fusion (Arabidopsis thaliana)
Technique: DHFR PCA, deep sequencing
Matrix: yeast
Notes: methotrexate growth selection, single substitutions
Added: (+)-ABA 2500 µM
Relative to: wild-type fitted maximum
Reading: higher = stronger binding
Endpoint: relative binding score
Starting sequence: PYL1, truncated, DHFR fusion (Arabidopsis thaliana); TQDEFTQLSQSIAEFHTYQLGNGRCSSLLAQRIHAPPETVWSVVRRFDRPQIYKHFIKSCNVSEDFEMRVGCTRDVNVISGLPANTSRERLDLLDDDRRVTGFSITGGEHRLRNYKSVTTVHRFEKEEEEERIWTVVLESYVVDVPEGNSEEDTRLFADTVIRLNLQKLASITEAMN; partner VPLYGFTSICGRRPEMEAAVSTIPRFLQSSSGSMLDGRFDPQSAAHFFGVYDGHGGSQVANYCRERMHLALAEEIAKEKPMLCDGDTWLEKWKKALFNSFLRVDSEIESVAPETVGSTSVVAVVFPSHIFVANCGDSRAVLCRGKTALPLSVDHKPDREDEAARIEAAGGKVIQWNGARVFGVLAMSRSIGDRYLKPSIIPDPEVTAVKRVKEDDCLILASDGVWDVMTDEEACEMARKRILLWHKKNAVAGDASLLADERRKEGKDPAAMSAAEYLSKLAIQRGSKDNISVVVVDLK
T17V: 92.8%
G71V: 32.2%
I79W: 97.4%
E130Y: 106%
K54S: 23.8%

Single results of other studies
PhoQ, residues 284 288 289 292 302 303 ASTSDA  fold induction (PhoP, residues 12 14 15 18 19 NQGLL (Escherichia coli, UniProt P23836); Sort-seq, refers to: YFP reporter; E. coli; PhoQ-PhoP variant library, added: 10 µM Mg2+; relative to: high Mg2+ state, higher = stronger signaling): 8.45

A few entries again (study 3):
G71V: 32.2%
I79W: 97.4%
